Measurements gathered from unrelated publications.
Protocols differ between the studies behind these lines.
GBA2: Beta-glucosidase (GBA2, Homo sapiens, UniProt Q9HCG7)
UniProt Q9HCG7, sequence (whole entry, looked up): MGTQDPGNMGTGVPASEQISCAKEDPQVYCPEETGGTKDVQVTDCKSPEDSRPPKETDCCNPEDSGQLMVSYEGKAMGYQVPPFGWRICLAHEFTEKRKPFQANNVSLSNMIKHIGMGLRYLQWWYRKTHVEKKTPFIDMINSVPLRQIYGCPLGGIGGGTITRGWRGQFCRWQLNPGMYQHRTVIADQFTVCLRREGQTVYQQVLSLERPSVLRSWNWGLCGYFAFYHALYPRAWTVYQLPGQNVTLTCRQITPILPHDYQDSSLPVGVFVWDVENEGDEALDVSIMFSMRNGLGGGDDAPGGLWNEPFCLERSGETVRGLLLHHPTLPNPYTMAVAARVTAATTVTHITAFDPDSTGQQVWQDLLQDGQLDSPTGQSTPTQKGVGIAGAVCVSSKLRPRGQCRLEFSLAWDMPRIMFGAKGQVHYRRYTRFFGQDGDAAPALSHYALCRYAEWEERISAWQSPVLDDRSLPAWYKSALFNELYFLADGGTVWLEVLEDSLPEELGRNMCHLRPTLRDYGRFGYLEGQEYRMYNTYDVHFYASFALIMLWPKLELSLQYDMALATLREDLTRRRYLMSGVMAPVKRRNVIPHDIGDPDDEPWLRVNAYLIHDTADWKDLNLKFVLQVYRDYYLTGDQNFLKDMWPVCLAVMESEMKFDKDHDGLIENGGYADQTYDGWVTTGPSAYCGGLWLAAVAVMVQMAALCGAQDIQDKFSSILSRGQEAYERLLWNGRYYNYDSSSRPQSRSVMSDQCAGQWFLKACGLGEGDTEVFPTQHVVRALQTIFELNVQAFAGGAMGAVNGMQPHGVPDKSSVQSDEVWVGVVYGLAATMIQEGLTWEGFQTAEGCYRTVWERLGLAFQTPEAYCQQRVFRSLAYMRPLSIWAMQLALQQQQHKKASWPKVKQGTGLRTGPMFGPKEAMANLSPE
PPARA ligand-binding domain: Peroxisome proliferator-activated receptor alpha, ligand-binding domain (PPARA, Homo sapiens, UniProt Q07869)
UniProt Q07869, sequence (whole entry, looked up): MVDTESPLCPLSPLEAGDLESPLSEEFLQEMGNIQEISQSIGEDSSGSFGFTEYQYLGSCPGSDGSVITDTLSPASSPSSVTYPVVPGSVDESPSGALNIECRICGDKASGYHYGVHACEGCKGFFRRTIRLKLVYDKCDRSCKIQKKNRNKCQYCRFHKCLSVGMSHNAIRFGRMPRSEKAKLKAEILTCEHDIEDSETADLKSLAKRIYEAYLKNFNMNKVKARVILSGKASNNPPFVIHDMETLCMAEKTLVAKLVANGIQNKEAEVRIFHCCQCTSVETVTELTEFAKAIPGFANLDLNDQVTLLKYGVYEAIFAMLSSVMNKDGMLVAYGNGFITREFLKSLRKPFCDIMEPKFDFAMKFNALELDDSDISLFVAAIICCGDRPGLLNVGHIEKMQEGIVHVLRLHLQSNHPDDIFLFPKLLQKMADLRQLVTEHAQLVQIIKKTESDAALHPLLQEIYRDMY
HDAC2: Histone deacetylase 2 (HDAC2, Homo sapiens, UniProt Q92769)
UniProt Q92769, sequence (whole entry, looked up): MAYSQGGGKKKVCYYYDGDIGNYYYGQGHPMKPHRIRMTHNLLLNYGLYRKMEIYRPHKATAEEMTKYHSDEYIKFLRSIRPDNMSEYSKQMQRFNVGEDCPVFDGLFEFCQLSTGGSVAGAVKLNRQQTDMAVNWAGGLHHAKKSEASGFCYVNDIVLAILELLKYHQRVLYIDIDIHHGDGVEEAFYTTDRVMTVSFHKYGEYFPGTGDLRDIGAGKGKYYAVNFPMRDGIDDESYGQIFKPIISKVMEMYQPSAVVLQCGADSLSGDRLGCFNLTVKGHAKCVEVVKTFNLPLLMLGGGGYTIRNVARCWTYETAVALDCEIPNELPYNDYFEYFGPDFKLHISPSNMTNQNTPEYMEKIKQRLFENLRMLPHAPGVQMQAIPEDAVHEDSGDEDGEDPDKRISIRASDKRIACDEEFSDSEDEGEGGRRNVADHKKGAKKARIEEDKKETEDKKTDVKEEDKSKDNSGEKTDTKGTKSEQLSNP
Chymotrypsinogen A: Chymotrypsinogen A (Bos taurus, UniProt P00766)
CHEK1: Serine/threonine-protein kinase Chk1 (CHEK1, Homo sapiens, UniProt O14757)
UniProt O14757, sequence (whole entry, looked up): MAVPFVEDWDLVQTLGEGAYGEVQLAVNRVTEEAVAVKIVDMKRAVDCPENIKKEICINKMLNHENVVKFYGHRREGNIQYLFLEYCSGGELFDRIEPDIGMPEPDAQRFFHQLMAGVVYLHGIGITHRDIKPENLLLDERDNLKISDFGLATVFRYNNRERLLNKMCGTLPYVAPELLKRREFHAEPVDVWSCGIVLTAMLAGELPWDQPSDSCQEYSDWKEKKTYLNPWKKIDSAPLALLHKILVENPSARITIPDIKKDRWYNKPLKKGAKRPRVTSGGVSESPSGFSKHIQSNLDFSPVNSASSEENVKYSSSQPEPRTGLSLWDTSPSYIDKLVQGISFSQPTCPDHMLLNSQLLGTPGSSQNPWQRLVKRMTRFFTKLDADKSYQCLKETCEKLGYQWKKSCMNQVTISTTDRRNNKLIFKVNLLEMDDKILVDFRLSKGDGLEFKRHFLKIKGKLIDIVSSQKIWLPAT
Sensor histidine kinase AirS: Sensor histidine kinase AirS (Staphylococcus aureus, UniProt Q2FX96)
IAPP: Islet amyloid polypeptide (IAPP, Homo sapiens, UniProt P10997)
UniProt P10997, sequence (whole entry, looked up): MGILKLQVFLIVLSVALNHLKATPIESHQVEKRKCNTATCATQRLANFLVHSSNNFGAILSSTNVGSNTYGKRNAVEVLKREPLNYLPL
PIK3CG: Phosphatidylinositol 4,5-bisphosphate 3-kinase catalytic subunit gamma isoform (PIK3CG, Homo sapiens, UniProt P48736)
UniProt P48736, sequence (whole entry, looked up): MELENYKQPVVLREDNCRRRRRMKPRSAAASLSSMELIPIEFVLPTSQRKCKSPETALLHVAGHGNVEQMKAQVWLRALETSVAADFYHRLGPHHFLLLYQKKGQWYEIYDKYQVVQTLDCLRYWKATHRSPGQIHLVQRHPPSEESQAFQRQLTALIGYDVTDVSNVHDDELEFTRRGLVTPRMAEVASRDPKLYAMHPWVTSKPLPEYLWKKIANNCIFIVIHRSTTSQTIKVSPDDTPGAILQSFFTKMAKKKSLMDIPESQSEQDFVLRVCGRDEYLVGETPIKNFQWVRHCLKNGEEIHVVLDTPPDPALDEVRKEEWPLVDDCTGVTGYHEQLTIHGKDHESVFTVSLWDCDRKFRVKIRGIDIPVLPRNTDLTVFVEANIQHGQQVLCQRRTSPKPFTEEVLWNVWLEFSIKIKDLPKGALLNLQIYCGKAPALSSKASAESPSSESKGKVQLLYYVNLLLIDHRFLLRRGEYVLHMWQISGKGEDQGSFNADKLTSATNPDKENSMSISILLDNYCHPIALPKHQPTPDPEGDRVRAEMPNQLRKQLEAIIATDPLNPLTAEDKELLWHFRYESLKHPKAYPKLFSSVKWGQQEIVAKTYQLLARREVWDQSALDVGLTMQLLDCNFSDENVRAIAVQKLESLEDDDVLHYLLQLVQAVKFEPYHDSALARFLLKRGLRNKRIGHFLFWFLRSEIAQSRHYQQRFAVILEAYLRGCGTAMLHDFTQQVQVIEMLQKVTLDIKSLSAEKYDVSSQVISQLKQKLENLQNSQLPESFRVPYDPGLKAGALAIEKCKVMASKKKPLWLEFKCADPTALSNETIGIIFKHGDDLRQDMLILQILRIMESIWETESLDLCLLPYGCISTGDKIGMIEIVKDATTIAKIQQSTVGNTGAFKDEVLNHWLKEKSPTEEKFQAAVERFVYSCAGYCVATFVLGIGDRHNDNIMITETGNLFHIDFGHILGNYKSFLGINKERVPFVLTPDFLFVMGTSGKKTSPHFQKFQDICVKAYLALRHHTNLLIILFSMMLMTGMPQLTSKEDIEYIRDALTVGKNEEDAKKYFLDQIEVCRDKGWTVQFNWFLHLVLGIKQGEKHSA
UniProt P07550, sequence (whole entry, unmodified, looked up): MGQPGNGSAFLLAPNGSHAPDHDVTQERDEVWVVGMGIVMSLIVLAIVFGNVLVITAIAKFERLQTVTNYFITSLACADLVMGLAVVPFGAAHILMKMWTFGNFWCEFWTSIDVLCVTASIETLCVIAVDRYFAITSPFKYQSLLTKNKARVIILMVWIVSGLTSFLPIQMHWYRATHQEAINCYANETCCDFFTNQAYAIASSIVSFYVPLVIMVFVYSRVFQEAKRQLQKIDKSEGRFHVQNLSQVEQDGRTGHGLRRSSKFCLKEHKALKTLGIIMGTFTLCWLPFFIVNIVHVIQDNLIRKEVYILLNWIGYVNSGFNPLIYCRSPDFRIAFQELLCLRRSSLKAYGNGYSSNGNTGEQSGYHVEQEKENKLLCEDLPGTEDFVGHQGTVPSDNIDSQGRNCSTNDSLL
UniProt Q8NER1, sequence (whole entry, unmodified, looked up): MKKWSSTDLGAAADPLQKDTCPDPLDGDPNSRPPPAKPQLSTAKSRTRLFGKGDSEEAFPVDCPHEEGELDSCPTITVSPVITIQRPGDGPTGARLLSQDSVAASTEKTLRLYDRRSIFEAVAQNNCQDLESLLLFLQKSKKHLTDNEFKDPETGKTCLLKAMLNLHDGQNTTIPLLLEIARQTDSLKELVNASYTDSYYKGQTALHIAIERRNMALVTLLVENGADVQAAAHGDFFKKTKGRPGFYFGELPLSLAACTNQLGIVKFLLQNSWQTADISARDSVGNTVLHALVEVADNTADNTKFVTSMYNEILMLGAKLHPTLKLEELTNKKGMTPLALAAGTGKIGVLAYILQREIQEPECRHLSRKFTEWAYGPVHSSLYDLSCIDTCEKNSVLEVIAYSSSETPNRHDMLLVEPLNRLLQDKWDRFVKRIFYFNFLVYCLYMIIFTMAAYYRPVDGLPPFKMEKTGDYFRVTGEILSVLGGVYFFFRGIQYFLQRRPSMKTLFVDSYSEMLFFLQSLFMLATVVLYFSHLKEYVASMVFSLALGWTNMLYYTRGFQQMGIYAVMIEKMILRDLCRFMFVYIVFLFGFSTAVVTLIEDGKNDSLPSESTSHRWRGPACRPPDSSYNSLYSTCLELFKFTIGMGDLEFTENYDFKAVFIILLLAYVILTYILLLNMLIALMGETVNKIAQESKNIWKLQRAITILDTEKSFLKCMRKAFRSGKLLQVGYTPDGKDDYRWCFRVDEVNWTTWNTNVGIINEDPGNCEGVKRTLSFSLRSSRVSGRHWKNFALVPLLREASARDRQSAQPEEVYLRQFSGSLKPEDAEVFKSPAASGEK

CCCCOCCCCCN1C[C@H](O)[C@@H](O)[C@H](O)[C@@H]1CO — IC50 (GBA2; inhibitor, 4MU-β-D-glucopyranoside; HEK293T homogenates overexpressing GBA2): 1 µM
COc1cccc([C@H](C)NC(=O)c2ccc3c(Cc4cccc(OC(C)(C)C(=O)O)c4)c(C)n(C)c3c2)c1 — IC50 (PPARA ligand-binding domain; reporter gene, luciferase reporter; HEK293T, Gal4-PPARα LBD): 263 µM
O=C(CCc1ccc(CNC(C(=O)O)C2CCCCC2)cn1)NO (stereo not drawn) — IC50 (HDAC2; enzyme activity, inhibitor): 1.74 µM
OC[C@@H]1[C@@H](O)[C@H](O)[C@@H](O)CN1CCCCCOCC1CCCC1 — IC50 (GBA2; inhibitor, 4MU-β-D-glucopyranoside; HEK293T homogenates overexpressing GBA2): 0.009 µM
CC(C)C(O)C#Cc1ccc2[nH]c3c(c2c1)-c1nc(N)ncc1CCC3 (stereo not drawn) — IC50 (PIP4K2C (Homo sapiens, UniProt Q8TBX8); target engagement in cells, BRET): 0.02 µM
Cc1c(Cc2ccc(OC(C)(C)C(=O)O)cc2)c2ccc(C(=O)N[C@@H](C)c3ccc(C4CC4)cc3)cc2n1C — IC50 (PPARA ligand-binding domain; reporter gene, luciferase reporter; HEK293T, Gal4-PPARα LBD): 3.01 µM
C/C1=C\CC/C(C)=C/CC(C)(C)/C=C/C1 — IC50 (TRPV1 (Homo sapiens, UniProt Q8NER1, G492W); ion current, inhibitor, patch clamp): 35.6 µM
O=C(NCc1ccc(Cl)cc1)C(C(F)(F)F)C(F)(F)F — IC50 (Chymotrypsinogen A; enzyme activity, inhibitor, fluorescence): 18 µM
COc1cc(-c2ccc3c(c2)Nc2ccc(C(=O)NCCCN4CCOCC4)cc2NC3=O)ccc1O — IC50 (CHEK1; enzyme activity, inhibitor): 0.121 µM
Cc1cccc(NC(=O)C(C(F)(F)F)C(F)(F)F)c1 — IC50 (Chymotrypsinogen A; enzyme activity, inhibitor, fluorescence): 7.4 µM
CCn1c(C)c(Cc2cccc(OC(C)(C)C(=O)O)c2)c2ccc(C(=O)N[C@@H](C)c3cccc(C(C)(C)C)c3)cc21 — IC50 (PPARA ligand-binding domain; reporter gene, luciferase reporter; HEK293T, Gal4-PPARα LBD): 50.6 µM
OC[C@@H]1[C@@H](O)[C@H](O)[C@@H](O)CN1CCCCCOCc1ccc(-c2cncnc2)cc1 — IC50 (GBA2; inhibitor, 4MU-β-D-glucopyranoside; HEK293T homogenates overexpressing GBA2): 0.025 µM
CCn1nc(Cl)c2c1-c1cnc(N)c(c1)O[C@H](C)c1cc(F)ccc1-c1nn(C)cc1C2 — IC50 (MUSK (Homo sapiens, UniProt O15146); enzyme activity, inhibitor, radiometric): 0.09 µM
CCCCCCCCCCCCNC(=S)NCCCC[C@H](NC(=O)OCc1ccccc1)C(=O)N[C@@H](Cc1c[nH]c2ccccc12)C(=O)NC(C)C — IC50 (SIRT2 (Homo sapiens, UniProt Q8IXJ6); enzyme activity, inhibitor): 0.45 µM
OC[C@@H]1[C@@H](O)[C@H](O)[C@@H](O)c2nccn21 — IC50 (GBA2; HEK293 lysate overexpressing enzyme; pH 5.8, with: 4-MU-β-D-glucopyranoside): > 50 µM
O=c1cc(-c2ccc(O)cc2)oc2cc(O)ccc12 — IC50 (ALOX5 (Homo sapiens, UniProt P09917); enzyme activity, inhibitor): 5.01 µM
CC1Cc2ccccc2N1C1=C(c2ccncc2)C(=O)NC1=O (stereo not drawn) — IC50 (Sensor histidine kinase AirS; autophosphorylation, inhibitor, BODIPY-FL-ATPγS in-gel fluorescence; lower bound of confidence interval): > 1250 µM
Cc1cc(C)c(S(=O)(=O)N(CC(=O)O)c2ccc(Nc3ccnc(N4CCCC4)n3)cc2)c(C)c1 — IC50 (CHEK1; enzyme activity, inhibitor): > 100 µM
O=C(COc1ccccc1NC(=O)C(C(F)(F)F)C(F)(F)F)NCC1CC1 — IC50 (Chymotrypsinogen A; enzyme activity, inhibitor, fluorescence): 66 µM
CN(C)c1ccc(/N=N/c2ccccc2C(=O)OCCCCN)cc1 — IC50 (IAPP; ThT displacement, ThT fluorescence; pH 7.4, preformed target-ThT complex, with: 5 µM ThT): 0.75 µM
C[C@@H]1O[C@@H](OC[C@H]2O[C@@H](Oc3c(-c4ccc(O)cc4)oc4cc(O)cc(O)c4c3=O)[C@H](O[C@@H]3O[C@@H](C)[C@H](O)[C@@H](O)[C@H]3O)[C@@H](O)[C@@H]2O)[C@H](O)[C@H](O)[C@H]1O — IC50 (PNLIP (Sus scrofa, UniProt P00591); enzyme activity, inhibitor): 49.9 µM
Nc1ncc2c(n1)-c1c([nH]c3ccc(C4=CCOCC4)cc13)CCC2 — IC50 (PIKFYVE (Homo sapiens, UniProt Q9Y2I7); target engagement in cells, BRET): 0.45 µM
CCCCCCCN1C[C@H](O)[C@@H](O)[C@H](O)[C@@H]1CO — IC50 (GBA2; inhibitor, 4MU-β-D-glucopyranoside; HEK293T homogenates overexpressing GBA2): 0.04 µM
O=C1CC(c2ccccc2)N1S(=O)(=O)Cc1ccccc1 (stereo not drawn) — IC50 (Chymotrypsinogen A; enzyme activity, inhibitor, fluorescence): 4.3 µM
OC[C@@H]1[C@@H](O)[C@H](O)[C@@H](O)CN1CCCCCOCc1ccc(-c2ccc3c(c2)OCCCO3)cc1 — IC50 (GBA2; inhibitor, 4MU-β-D-glucopyranoside; HEK293T homogenates overexpressing GBA2): 0.015 µM
COc1ccc2c(c1)N(C1=C(c3ccccc3)C(=O)NC1=O)CC2 — IC50 (Sensor histidine kinase AirS; autophosphorylation, inhibitor, BODIPY-FL-ATPγS in-gel fluorescence; lower bound of confidence interval): > 1000 µM
O=C(Nc1ccccc1OCc1ccccc1)C(C(F)(F)F)C(F)(F)F — IC50 (Chymotrypsinogen A; enzyme activity, inhibitor, fluorescence): 14 µM
Cc1c(CC(=O)NCCCO)c(=O)oc2cc(O)cc(O)c12 — IC50 (B4GALT1 (Homo sapiens, UniProt P15291); enzyme activity, inhibitor): 8 µM
Cc1nn(-c2cccc(N)c2)c(=O)c2cnc(Nc3ccc(N4CCNCC4)cc3)nc12 — IC50 (CSK (Homo sapiens, UniProt P41240); enzyme activity, inhibitor): > 10 µM
Cc1nc2cc(C(=O)N[C@@H](C)c3ccc(C(C)(C)C)cc3)ccc2n1Cc1cc(Cl)cc(O[C@H](C)C(=O)O)c1 — IC50 (PPARA ligand-binding domain; reporter gene, luciferase reporter; HEK293T, Gal4-PPARα LBD): 0.01 µM
C[C@H](c1ccccc1)N1C(=O)C2=Nc3cccc(Cl)c3CN2C1=S — IC50 (GRK4 (Homo sapiens, UniProt P32298); enzyme activity, inhibitor): 0.254 µM
C[C@@H](OCCCCCN1C[C@H](O)[C@@H](O)[C@H](O)[C@H]1CO)c1ccc(-c2ccccc2)cc1 — IC50 (GBA2; inhibitor, 4MU-β-D-glucopyranoside; HEK293T homogenates overexpressing GBA2): 0.003 µM
N#Cc1cnc(NC(=O)Nc2cc(Cl)ccc2OCCCN2C(=O)c3ccccc3C2=O)cn1 — IC50 (CHEK1; enzyme activity, inhibitor): 0.013 µM
N[C@@H](CCC(=O)N[C@@H](CS[Se]Cc1ccc(-c2cccc(C(O)c3ccc(Cl)c(Cl)c3)c2)cc1)C(=O)NCC(=O)O)C(=O)O (stereo partly drawn) — IC50 (PTPN7 (Homo sapiens, UniProt P35236); enzyme activity, inhibitor; with: pNPP, GSH 1 mM): 2.49 µM
OC[C@H]1[C@@H](O)[C@H](O)[C@@H](O)CN1CCCCCOCc1ccc(-c2ccccc2)c(C(F)(F)F)c1 — IC50 (GBA2; inhibitor, 4MU-β-D-glucopyranoside; HEK293T homogenates overexpressing GBA2): 0.0001 µM
CC(C)(C)OC(=O)NCCOc1ccccc1NC(=O)C(C(F)(F)F)C(F)(F)F — IC50 (Chymotrypsinogen A; enzyme activity, inhibitor, fluorescence): 49 µM
O=C(CCc1ccco1)N1C(=O)C2(NC(c3ccc(F)cc3)C3(C(=O)Nc4ccccc43)N2Cc2ccc(F)cc2)c2ccccc21 (stereo not drawn) — IC50 (PIK3CG; enzyme activity, inhibitor, ADP detection): 0.0584 µM
Cc1cccc(-n2nc(S)sc2=S)c1 — IC50 (Adenylate cyclase type 10 (Homo sapiens, UniProt Q96PN6); enzyme activity, inhibitor): > 20 µM
CC(=O)N[C@@H](CCCCN)C(=O)NCCOCCOC(=O)c1ccc(/N=N/c2ccc(N(C)C)cc2)cc1 — IC50 (IAPP; ThT displacement, ThT fluorescence; pH 7.4, preformed target-ThT complex, with: 5 µM ThT): 2.6 µM
Cc1c(COc2cc(OCc3cccc(C#N)c3)c(CNC(CO)(CO)CO)cc2Cl)cccc1-c1cccc(OCCCCCCC(=O)NO)c1 — IC50 (HDAC2; enzyme activity, inhibitor): 0.0605 µM
Fc1ccc(Nc2nc(NC3CCCCC3)c3ccccc3n2)cc1F — IC50 (ADRB2 (Homo sapiens, UniProt P07550, I159A); β-arrestin2 recruitment, antagonist, BRET; HEK293; mutant I159A, with: isoprenaline 1 µM): 1 µM
Cc1c(Cc2cc(Cl)cc(O[C@H](C)C(=O)O)c2)c2ccc(C(=O)N[C@@H](C)c3ccc(C(C)(C)C)cc3)cc2n1CC(C)C — IC50 (PPARA ligand-binding domain; reporter gene, luciferase reporter; HEK293T, Gal4-PPARα LBD): 10.4 µM
CCCCCNC(=O)N1N=C(c2ccc(Cl)cc2)CC1c1ccc(NC(=O)Nc2ccc(Cl)cc2)cc1 (stereo not drawn) — IC50 (AGER (Homo sapiens, UniProt Q15109)): 25 µM
O=C1CC(c2ccc(Br)cc2)N1S(=O)(=O)c1cccc(Cl)c1 (stereo not drawn) — IC50 (Chymotrypsinogen A; enzyme activity, inhibitor, fluorescence): 0.22 µM
CCCCCN1C[C@H](O)[C@@H](O)[C@H](O)[C@H]1CO — IC50 (GBA2; inhibitor, 4MU-β-D-glucopyranoside; HEK293T homogenates overexpressing GBA2): 0.4 µM
Cc1ccc(CN2C(=O)C3(c4ccccc42)C(c2ccc(F)cc2)NC2(C(=O)N(C(=O)CCc4ccccc4)c4ccccc42)N3Cc2ccc(F)cc2)cc1 (stereo not drawn) — IC50 (PIK3CG; enzyme activity, inhibitor, ADP detection): 0.0187 µM
COc1ccc(CNC(=O)C(C(F)(F)F)C(F)(F)F)cc1 — IC50 (Chymotrypsinogen A; enzyme activity, inhibitor, fluorescence): > 100 µM
Cc1c(Cc2cccc(C(C)(C)C(=O)O)c2)c2ccc(C(=O)N[C@@H](C)c3ccc(C(C)(C)C)cc3)cc2n1C — IC50 (PPARA ligand-binding domain; reporter gene, luciferase reporter; HEK293T, Gal4-PPARα LBD): 4.92 µM

For quick reference, copied from above:
O=C(COc1ccccc1NC(=O)C(C(F)(F)F)C(F)(F)F)NCC1CC1 — IC50 (Chymotrypsinogen A; enzyme activity, inhibitor, fluorescence): 66 µM
Fc1ccc(Nc2nc(NC3CCCCC3)c3ccccc3n2)cc1F — IC50 (ADRB2 (Homo sapiens, UniProt P07550, I159A); β-arrestin2 recruitment, antagonist, BRET; HEK293; mutant I159A, with: isoprenaline 1 µM): 1 µM
CC(C)(C)OC(=O)NCCOc1ccccc1NC(=O)C(C(F)(F)F)C(F)(F)F — IC50 (Chymotrypsinogen A; enzyme activity, inhibitor, fluorescence): 49 µM
O=C(Nc1ccccc1OCc1ccccc1)C(C(F)(F)F)C(F)(F)F — IC50 (Chymotrypsinogen A; enzyme activity, inhibitor, fluorescence): 14 µM
C/C1=C\CC/C(C)=C/CC(C)(C)/C=C/C1 — IC50 (TRPV1 (Homo sapiens, UniProt Q8NER1, G492W); ion current, inhibitor, patch clamp): 35.6 µM
OC[C@@H]1[C@@H](O)[C@H](O)[C@@H](O)CN1CCCCCOCc1ccc(-c2ccc3c(c2)OCCCO3)cc1 — IC50 (GBA2; inhibitor, 4MU-β-D-glucopyranoside; HEK293T homogenates overexpressing GBA2): 0.015 µM
